Assay results of several laboratories.
Numbered parts are unrelated; each lists some results of a single study.
Sequence of UniProt Q9UK32 (whole entry, looked up): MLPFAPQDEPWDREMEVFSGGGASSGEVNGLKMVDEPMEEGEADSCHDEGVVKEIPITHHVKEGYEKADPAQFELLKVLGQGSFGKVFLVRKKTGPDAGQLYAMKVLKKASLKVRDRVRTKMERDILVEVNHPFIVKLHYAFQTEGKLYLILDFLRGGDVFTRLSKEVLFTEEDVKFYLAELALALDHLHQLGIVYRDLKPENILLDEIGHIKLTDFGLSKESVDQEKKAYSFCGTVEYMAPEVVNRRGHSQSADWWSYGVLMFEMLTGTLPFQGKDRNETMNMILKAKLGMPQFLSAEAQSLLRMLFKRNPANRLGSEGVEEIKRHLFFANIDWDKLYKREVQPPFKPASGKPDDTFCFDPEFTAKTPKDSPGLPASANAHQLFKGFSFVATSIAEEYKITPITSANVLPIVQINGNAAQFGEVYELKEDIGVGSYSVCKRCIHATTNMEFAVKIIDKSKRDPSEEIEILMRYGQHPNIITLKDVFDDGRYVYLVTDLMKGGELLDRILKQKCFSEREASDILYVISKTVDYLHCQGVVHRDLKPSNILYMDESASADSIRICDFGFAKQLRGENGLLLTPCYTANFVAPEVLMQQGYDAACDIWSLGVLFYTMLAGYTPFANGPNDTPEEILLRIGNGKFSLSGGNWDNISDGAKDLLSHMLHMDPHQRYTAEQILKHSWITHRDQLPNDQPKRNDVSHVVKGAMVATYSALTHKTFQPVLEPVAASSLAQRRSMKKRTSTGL
Sequence of UniProt Q12852 (whole entry, looked up): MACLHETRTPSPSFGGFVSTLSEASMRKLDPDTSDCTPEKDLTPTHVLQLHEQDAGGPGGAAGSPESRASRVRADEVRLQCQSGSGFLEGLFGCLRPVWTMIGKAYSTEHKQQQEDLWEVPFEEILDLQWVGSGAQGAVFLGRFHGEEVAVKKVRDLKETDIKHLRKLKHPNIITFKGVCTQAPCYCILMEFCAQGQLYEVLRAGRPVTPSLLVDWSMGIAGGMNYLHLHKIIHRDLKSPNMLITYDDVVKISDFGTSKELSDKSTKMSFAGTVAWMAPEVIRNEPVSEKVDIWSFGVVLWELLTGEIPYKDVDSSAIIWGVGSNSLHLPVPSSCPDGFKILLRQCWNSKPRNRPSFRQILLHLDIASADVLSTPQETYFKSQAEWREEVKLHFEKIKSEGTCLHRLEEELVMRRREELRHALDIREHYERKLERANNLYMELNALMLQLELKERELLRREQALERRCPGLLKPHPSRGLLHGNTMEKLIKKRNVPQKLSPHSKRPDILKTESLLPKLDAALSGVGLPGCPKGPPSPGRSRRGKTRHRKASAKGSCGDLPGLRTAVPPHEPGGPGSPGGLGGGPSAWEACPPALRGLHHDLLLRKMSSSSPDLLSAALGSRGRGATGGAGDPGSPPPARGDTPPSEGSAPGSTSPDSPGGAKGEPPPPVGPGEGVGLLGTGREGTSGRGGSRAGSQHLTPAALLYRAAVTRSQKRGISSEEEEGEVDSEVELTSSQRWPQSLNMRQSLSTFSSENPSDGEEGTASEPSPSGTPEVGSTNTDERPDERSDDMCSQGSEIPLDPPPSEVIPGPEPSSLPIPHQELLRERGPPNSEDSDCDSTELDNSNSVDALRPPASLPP
Sequence of UniProt Q32MK0 (whole entry, looked up): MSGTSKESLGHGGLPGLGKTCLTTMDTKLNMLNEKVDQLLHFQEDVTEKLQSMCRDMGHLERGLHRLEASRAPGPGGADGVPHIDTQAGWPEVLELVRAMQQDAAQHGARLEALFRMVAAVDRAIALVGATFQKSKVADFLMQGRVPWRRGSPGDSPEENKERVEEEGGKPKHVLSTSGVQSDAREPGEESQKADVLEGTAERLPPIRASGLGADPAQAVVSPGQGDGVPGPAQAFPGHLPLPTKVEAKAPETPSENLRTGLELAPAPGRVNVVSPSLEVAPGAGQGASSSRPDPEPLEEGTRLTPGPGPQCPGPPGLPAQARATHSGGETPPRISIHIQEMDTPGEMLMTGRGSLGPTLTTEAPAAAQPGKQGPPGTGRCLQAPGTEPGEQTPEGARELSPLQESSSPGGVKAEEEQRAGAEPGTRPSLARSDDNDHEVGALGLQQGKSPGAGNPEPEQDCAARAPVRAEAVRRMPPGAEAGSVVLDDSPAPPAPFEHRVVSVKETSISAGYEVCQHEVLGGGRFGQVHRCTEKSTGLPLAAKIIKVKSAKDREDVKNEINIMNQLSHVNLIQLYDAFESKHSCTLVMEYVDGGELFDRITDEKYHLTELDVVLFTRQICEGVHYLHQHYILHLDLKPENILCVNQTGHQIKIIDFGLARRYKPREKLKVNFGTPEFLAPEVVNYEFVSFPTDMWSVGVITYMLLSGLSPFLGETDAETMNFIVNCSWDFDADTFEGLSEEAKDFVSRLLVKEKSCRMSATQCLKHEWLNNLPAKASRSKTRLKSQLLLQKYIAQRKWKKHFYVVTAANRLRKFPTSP
Sequence of UniProt Q8TBX8 (whole entry, looked up): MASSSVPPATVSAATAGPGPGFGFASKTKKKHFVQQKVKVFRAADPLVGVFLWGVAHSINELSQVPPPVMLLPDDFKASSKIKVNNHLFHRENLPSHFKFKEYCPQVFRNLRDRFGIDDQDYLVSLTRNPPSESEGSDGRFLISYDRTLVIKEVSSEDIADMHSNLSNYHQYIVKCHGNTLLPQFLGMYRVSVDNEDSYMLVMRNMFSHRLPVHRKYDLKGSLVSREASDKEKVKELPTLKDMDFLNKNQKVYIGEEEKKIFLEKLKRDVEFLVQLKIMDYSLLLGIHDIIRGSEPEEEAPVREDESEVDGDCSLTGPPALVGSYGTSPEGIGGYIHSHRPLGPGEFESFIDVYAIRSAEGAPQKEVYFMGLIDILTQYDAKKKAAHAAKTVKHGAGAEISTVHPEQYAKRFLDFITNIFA
Sequence of UniProt Q8NE63 (whole entry, looked up): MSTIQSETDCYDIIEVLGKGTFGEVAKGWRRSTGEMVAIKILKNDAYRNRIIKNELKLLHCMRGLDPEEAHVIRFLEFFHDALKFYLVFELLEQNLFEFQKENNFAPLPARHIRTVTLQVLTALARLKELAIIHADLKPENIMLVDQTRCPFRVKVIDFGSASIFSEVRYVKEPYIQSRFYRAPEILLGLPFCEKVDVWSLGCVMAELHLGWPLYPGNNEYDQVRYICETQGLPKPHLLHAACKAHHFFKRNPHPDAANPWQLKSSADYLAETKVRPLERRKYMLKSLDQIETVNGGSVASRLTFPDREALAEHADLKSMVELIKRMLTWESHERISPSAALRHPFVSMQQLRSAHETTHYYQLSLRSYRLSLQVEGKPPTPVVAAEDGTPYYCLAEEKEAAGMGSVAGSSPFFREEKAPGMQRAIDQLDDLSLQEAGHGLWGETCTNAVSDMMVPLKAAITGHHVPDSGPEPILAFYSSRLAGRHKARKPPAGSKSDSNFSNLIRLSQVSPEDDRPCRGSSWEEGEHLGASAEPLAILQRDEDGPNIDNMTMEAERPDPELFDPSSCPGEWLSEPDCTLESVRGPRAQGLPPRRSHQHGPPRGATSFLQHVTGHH
Sequence of UniProt Q04759 (whole entry, looked up): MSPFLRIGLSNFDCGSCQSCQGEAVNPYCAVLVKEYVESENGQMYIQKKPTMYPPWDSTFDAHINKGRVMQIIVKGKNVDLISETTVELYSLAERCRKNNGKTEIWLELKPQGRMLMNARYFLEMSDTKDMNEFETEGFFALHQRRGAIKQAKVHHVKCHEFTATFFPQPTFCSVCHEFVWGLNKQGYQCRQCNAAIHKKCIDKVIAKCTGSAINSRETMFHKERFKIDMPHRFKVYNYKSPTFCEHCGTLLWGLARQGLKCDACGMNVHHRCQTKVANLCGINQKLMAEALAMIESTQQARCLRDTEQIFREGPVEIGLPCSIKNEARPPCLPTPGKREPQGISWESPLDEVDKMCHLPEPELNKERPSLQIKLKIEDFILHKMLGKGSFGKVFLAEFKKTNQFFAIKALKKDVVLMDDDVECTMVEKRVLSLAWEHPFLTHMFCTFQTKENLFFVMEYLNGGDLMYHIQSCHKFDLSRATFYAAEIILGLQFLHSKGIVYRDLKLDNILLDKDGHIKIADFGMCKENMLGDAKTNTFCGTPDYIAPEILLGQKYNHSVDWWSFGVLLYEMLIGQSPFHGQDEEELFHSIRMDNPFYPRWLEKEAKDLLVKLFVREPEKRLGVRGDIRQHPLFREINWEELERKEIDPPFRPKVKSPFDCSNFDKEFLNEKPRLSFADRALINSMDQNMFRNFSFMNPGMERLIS

Series 1 — effect on: enzyme activity; mode: inhibitor; tested at: 0.5 µM; relative to: control
Target: LIM domain kinase 1 (LIMK1, Homo sapiens, UniProt P53667)
Sequence of UniProt P53667 (whole entry, looked up): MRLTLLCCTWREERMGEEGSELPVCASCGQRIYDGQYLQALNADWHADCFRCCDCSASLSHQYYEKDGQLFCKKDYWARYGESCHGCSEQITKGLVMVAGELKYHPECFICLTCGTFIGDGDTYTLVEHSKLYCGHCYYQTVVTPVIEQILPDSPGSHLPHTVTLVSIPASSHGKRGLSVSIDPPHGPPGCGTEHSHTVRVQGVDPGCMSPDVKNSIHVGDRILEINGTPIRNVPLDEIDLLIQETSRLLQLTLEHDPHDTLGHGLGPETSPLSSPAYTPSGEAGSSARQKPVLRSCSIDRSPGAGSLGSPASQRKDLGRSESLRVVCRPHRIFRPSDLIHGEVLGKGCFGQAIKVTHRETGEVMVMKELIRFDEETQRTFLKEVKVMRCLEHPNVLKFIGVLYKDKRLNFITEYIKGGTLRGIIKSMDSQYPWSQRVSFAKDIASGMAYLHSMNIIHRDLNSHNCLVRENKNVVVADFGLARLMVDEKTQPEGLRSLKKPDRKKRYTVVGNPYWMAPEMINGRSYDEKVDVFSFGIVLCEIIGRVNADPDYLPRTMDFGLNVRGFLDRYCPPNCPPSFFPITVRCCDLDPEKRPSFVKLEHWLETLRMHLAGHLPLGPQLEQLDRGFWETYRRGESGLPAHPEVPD
Compound	remaining activity
CNC(=O)c1cc(Oc2ccc(NC(=O)Nc3ccc(Cl)c(C(F)(F)F)c3)cc2)ccn1	76.8%
O=C(Nc1cccc(Nc2cc(Nc3cccc(C(F)(F)F)c3)ncn2)c1)C1CC1	95.9%
CO[C@H]1C[C@@H]2CC[C@@H](C)[C@@](O)(O2)C(=O)C(=O)N2CCCC[C@H]2C(=O)O[C@H]([C@H](C)C[C@@H]2CC[C@@H](O)[C@H](OC)C2)CC(=O)[C@H](C)/C=C(\C)[C@@H](O)[C@@H](OC)C(=O)[C@H](C)C[C@H](C)/C=C/C=C/C=C/1C	89.8%
Nc1[nH]nc2nc3ccccc3nc12	105%
CN(C)c1ccc(C=C2C(=O)Nc3ccccc32)cc1	97.7%
N#CC(C#N)=C(N)/C(C#N)=C/c1ccc(O)cc1	89.9%
COc1ccc(CNC(=O)Nc2ncc([N+](=O)[O-])s2)cc1	96%
COc1ccc(C(=O)Nc2sc3c(c2C(N)=O)CCCC3)cc1OC	93.2%
NCCNc1ncc(C(N)=O)c(Nc2cccc(C(F)(F)F)c2)n1	77.5%
Nc1ccc2ncnc(NCCc3ccc(Oc4ccccc4)cc3)c2c1	101%
C#Cc1cccc(Nc2ncnc3cc(OCCOC)c(OCCOC)cc23)c1	90.4%
Nc1ncnc2n[nH]c(Nc3ccc(F)cc3)c12	95.2%
OCC(O)CCON=C1C(c2c(O)[nH]c3ccccc23)=Nc2ccccc21 (centres unmarked)	39.5%
O=C(O)c1ccc2c3c1cccc3c(=O)n1c3ccccc3nc21	92.7%

Series 2 — technique: competition with immobilised ligand; tested at: 1 µM
SMILES: Cc1noc([C@H]2C[C@@H](c3ccc(C(F)(F)F)cc3)CN(C(=O)N3CCS(=O)(=O)C3)C2)n1
target	test	remaining binding [%]
PIP4K2C (Homo sapiens, UniProt Q8TBX8)	cell-free assay	89
MYLK3 (Homo sapiens, UniProt Q32MK0)	cell-free assay	100
Ribosomal protein S6 kinase alpha-6, N-terminal kinase domain (RPS6KA6, Homo sapiens, UniProt Q9UK32)	cell-free assay	98
Tyrosine-protein kinase ABL1, non-phosphorylated (ABL1, Homo sapiens, UniProt P00519, F317I)	binding	100
PRKCQ (Homo sapiens, UniProt Q04759)	cell-free assay	87
MAP3K12 (Homo sapiens, UniProt Q12852)	cell-free assay	92
HIPK4 (Homo sapiens, UniProt Q8NE63)	cell-free assay	100
Tyrosine-protein kinase ABL1, phosphorylated (ABL1, Homo sapiens, UniProt P00519, M351T)	cell-free assay	84

Series 3 — organism: Sarcocystis neurona; effect on: parasite growth; tested at: 10 µM; time: 96 h; setting: second screen; relative to: untreated
SMILES	log2 fold change
CC(C)NCC(O)c1ccc(NS(C)(=O)=O)cc1 (centres unmarked)	0.07
OCCN1CCN(CCCN2c3ccccc3Sc3ccc(C(F)(F)F)cc32)CC1	-2.69
NC1CCN(c2nc3c(cc2F)c(=O)c(C(=O)O)cn3-c2ccc(F)cc2F)C1 (centres unmarked)	0.00199
CCCCNC(=O)NS(=O)(=O)c1ccc(C)cc1	0.31
CC(C)NCC(O)COc1ccc(COCCOC(C)C)cc1 (centres unmarked)	0.26

Series 4 — species: human; sample: microsomes or S9; tested at: 2 µM; time: 0.5 h
Structure (SMILES)	remaining compound
Cc1c(O)ccc(C(=O)Cc2ccccc2F)c1O	67.6%
NCCO[C@H]1C[C@@H](O)C12CCN(CC(c1ccccc1)c1ccccc1)CC2	61.7%
COc1cc(=O)[nH]cc1C(=O)NC1CCN(c2c(F)cccc2F)C1 (centres unmarked)	86.5%
COCCOCC(=O)NCC1CCCCC(=O)N1 (centres unmarked)	92.3%
CCn1c(=O)c(C(=O)N2CCOCC2)nn(-c2ccc(S(C)(=O)=O)cc2)c1=O	79.2%
O=C1CN(c2nc(C3CCCC3)nc3c2CCOCC3)CCN1	94.7%
CCc1nc(-c2cccc(-c3noc(-c4ccc(Br)o4)n3)c2)cs1	43.3%
O=C(CCCCCNc1ncccn1)Nc1nc[nH]n1	97.8%

Repeated from above (series 1):
Compound	remaining activity
N#CC(C#N)=C(N)/C(C#N)=C/c1ccc(O)cc1	89.9%
O=C(O)c1ccc2c3c1cccc3c(=O)n1c3ccccc3nc21	92.7%
CO[C@H]1C[C@@H]2CC[C@@H](C)[C@@](O)(O2)C(=O)C(=O)N2CCCC[C@H]2C(=O)O[C@H]([C@H](C)C[C@@H]2CC[C@@H](O)[C@H](OC)C2)CC(=O)[C@H](C)/C=C(\C)[C@@H](O)[C@@H](OC)C(=O)[C@H](C)C[C@H](C)/C=C/C=C/C=C/1C	89.8%
CNC(=O)c1cc(Oc2ccc(NC(=O)Nc3ccc(Cl)c(C(F)(F)F)c3)cc2)ccn1	76.8%
